Measured values of several laboratories.
Parts stem from different laboratories: compare values within a part only.

Series 1
Target: Histone acetyltransferase KAT6A, winged helix 2, GST fusion (KAT6A, Homo sapiens, UniProt Q92794, residues 85-181)
Technique: protein binding microarray
Form: double-stranded DNA, one strand shown
Sample: in vitro
Concentration: not given
Notes: 8-mer, flanks averaged, mean of 2 arrays, mostly near background
Relative to: not given
Direction: higher = stronger binding
Target sequence (chain): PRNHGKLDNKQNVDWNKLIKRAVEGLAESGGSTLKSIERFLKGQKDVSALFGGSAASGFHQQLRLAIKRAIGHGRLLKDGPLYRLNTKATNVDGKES
`ATACGCAT` gave an E-score of 0.03.
For `TAATTATA`, the E-score was 0.137.
With `ATCAATCC` the E-score was -0.0567.
With `AGAGGCAC` the E-score was 0.0253.
With `GCTGGATA` the E-score was 0.0144.
The E-score of `GAGTTATC` is reported as 0.0454.
With `CGTTGAGA` the E-score was -0.0856.
The E-score of `AATATTGA` is reported as 0.166.
With `CCGCATCA` the E-score was -0.00319.
For `GAGCCGGA`, the E-score was 0.256.
`ACTCTAAC` gave an E-score of -0.2.
The E-score of `CAGTAAGA` is reported as -0.00231.
With `CCTAGTTA` the E-score was -0.0673.
For `CCAAAAGG`, the E-score was 0.0966.
`AACAAAGT` has an E-score of -0.00485.
`AATCTCGA` has an E-score of -0.0246.
`AGATCACG` gave an E-score of 0.02.
For `ATCCTTGC`, the E-score was 0.0931.
The E-score of `ATTAAATG` is reported as -0.0177.

Series 2
Target: RNA binding protein fox-1 homolog 2, RRM domain, GST-SBP tag (RBFOX2, Homo sapiens, UniProt O43251-10, residues 100-194)
Technique: RNA Bind-n-Seq
Form: RNA
Sample: in vitro
Concentration: 365 nM
Notes: natural RNA segment, single round, ends assumed
Relative to: no-protein control
Direction: higher = stronger binding
Residues (chain): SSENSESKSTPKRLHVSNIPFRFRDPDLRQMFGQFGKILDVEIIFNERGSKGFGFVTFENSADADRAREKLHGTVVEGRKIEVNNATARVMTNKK
`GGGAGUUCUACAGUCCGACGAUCAAUUUGGCAUGGAUUAAACAACCUCUACCACACUAUAGCUCUCACAUAGGCUGAACAUUUUCCUAAAUUCUACCUGUGCAGACACUGAGGGGCUCUCUACCUUUGAAACUUGGAAUUCUCGGGUGCCAA` — result for “RBNS enrichment (R)”: 0.292.
`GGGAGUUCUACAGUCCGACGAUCACCUAUACAGAGAGCAAACAAUGAGAUAAGAGGAACUGUCGCAAAGCUUUCCACUGAAACACAGGUCACCCUGGAAGUUUGCAGGGUUUGCUGUGGGCAUCUGUAGAUUUUGGAAUUCUCGGGUGCCAA`: “RBNS enrichment (R)” 0.849.
`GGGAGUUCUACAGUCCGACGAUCUGGCGCGAGAGCGCCUUGACACCUGUACCAAGCAAGCCACCCACUGCCAAGAGAUGUGAUAUAUAAGUGUAUAUAUUGUGCUGUGUUUGGGACCCUCCUCAUACAGCUCGUGGAAUUCUCGGGUGCCAA` — result for “RBNS enrichment (R)”: 0.359.
For `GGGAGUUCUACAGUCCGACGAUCUCUGAGCCACAGUUAGCUGCUAUUUUGAGGCAUCCAAGGGGAAGUGGGCUGAAAAACGCCACACUCAUUUCAAGGGGCAAUGUCUGGGGUUUAGAAAUUCAUUUAUAACUUGGAAUUCUCGGGUGCCAA`, “RBNS enrichment (R)” read 0.53.
Under “RBNS enrichment (R)”, `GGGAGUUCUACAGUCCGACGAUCUACAAAAAUAAAAAGCGGGAAUUUUCCCUUCGCUUGAAUAUUAUCCCUGUAUAUUGCAUGAAUGAGAGAUUUCCCAUAUUUCCAUCAGAGUAAUAAAUAUACUUGCUUUAUGGAAUUCUCGGGUGCCAA` is recorded as 0.621.
Under “RBNS enrichment (R)”, `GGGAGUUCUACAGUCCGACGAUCCAUUCGAAGGACAUCAGCGACCUUGGCUUGUUUAGGUGAUUUUACUUCCAGCUGCAGGUAGUCUUGACAAGGAGUGUUUAAACAGAAGGCUCAAGAUGCAUUCCUUGUGUUGGAAUUCUCGGGUGCCAA` is recorded as 0.546.
For `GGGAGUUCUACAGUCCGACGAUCCUGUGUGGAUGACUGUGUGACUGGGAGCCUGGACCGGCUGACAGGCCAUGAGCUACCCACUGGCAUCUCCAGGUUUUUUGUAGCAAACAGCCACUUAGUGCUUUGUCCUGUGGAAUUCUCGGGUGCCAA`, “RBNS enrichment (R)” read 0.314.
For `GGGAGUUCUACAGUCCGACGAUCUCUUCAAAGCAUCUGUGUGAGGGGGUCUUCCCUCUUACAAGAAAGCUGUCUGUUGGGGGUUACAAGCAAGGUGGUAAACGUUAAGCUAGUAUCAUAGUCAUUUAAACCUGUGGAAUUCUCGGGUGCCAA`, “RBNS enrichment (R)” read 0.226.
`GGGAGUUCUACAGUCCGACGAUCUGUGUAUAUAUUGCACCUUGAGUUGUCAGAAGGUAGAAACUGAAAUAAACUAACUUUAAAAAAAAAAGUCUGUUUAAUUUUUAACACAUCCAUGAGGACUUUUUACAGAAUGGAAUUCUCGGGUGCCAA`: “RBNS enrichment (R)” 0.584.
Under “RBNS enrichment (R)”, `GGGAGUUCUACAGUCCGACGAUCAAGACUGUUUUCCUGUGUAAGUGUUGCCCUCUAGAGGUACCUAGCAGUCACCCCACAAGCCUACCAUCACGUCCCCUUCAGAGCUCACCUUGUAUCCUUAAUCCUCAGUAUGGAAUUCUCGGGUGCCAA` is recorded as 0.524.
`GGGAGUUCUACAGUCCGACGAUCAGCCAGGCGCCUGCUCAUGUUGAAGUGCGCUGUUCACACCCGCUCCGGAGAGCACCCCAGCAGCAUCCAGAAGCAGCUGCAGUGUUGCUGCCACCACCCUCCUGUCUGCCUGGAAUUCUCGGGUGCCAA` — result for “RBNS enrichment (R)”: 0.398.
Under “RBNS enrichment (R)”, `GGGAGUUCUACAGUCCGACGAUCACUUCCUAGAGCAUCUGUCCCACUGGGACACAACCACUAAUUUGUCACUGGAACCUCCCUGGGCCUGUCUCAGAUUGGGAUUAACAUAAAAGAGUGGAACUAUCCAAAAGUGGAAUUCUCGGGUGCCAA` is recorded as 0.231.

Series 3
Target: Sal-like protein 4, full length isoform A (SALL4, Homo sapiens, UniProt Q9UJQ4, residues 1-1053)
Sequence of UniProt Q9UJQ4 (whole entry, looked up): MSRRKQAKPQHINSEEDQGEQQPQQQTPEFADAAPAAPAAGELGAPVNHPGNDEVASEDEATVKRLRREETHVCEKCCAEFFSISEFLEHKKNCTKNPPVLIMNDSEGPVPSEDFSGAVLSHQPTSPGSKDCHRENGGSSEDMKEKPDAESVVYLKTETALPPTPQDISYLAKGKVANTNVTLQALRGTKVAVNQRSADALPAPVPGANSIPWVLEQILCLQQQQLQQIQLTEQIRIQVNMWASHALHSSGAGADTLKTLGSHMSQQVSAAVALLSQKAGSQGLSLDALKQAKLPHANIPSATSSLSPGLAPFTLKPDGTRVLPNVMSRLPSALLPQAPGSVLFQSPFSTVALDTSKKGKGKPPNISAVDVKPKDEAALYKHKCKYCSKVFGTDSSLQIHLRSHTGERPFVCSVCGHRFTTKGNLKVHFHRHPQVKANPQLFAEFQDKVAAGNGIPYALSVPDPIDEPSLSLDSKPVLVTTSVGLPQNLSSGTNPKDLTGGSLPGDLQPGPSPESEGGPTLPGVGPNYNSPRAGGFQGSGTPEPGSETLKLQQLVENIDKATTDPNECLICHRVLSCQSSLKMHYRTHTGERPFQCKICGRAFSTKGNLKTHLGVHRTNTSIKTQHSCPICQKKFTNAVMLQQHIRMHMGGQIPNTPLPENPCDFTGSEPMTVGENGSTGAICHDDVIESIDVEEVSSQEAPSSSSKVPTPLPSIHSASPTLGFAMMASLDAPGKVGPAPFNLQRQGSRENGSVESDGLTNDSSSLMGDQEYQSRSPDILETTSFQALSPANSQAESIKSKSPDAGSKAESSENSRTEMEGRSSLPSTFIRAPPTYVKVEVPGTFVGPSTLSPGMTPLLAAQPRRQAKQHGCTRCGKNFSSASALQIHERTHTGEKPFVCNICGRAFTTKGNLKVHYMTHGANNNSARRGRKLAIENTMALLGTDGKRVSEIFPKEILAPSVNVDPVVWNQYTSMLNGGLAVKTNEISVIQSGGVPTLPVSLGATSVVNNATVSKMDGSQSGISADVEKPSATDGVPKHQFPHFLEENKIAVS
Technique: universal PBM
Form: double-stranded DNA, one strand shown
Sample: in vitro
Concentration: 600 nM
Notes: 8-mer, flanks averaged, mean of replicates
Direction: higher = stronger binding
`CGTAAGTA` has an E-score of 0.112.
For `CGGGCTGC`, the E-score was -0.317.
`AGCCGTGC` has an E-score of -0.24.
With `CTCTTCCA` the E-score was 0.0394.
`AGCTCGTC` gave an E-score of -0.252.
With `CCCAAATA` the E-score was 0.0456.
`CCTTGGCG` has an E-score of -0.422.
With `ACGGTAGC` the E-score was -0.147.
For `AGTAAAGG`, the E-score was 0.0321.
`GCCAATGA` gave an E-score of -0.148.
`ACAATGCT` gave an E-score of 0.0362.
`CTGTAAAG` gave an E-score of 0.0645.
`AGACCATC` has an E-score of -0.00988.
`AGTAGTCC` gave an E-score of -0.00157.
`TTGCAAAA` gave an E-score of 0.266.
With `CGTAGGCA` the E-score was -0.14.
With `CACTCCAA` the E-score was -0.0919.
For `GGTGATTA`, the E-score was 0.167.

Series 4
Target: Fragile X messenger ribonucleoprotein 1, C-terminal low-complexity region (Fmr1, Mus musculus, UniProt P35922)
Technique: RNA Bind-n-Seq
Form: RNA
Sample: in vitro
Concentration: 200 nM
Notes: whole 134-nt RNA, ends assumed
Together with: 150 mM KCl
Relative to: input library
Direction: higher = stronger binding
The log2 enrichment of `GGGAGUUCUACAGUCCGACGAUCAGUCCUGUGCUACACAUCGUAUGUACCGAAUCAAACCCCCAAACCCAAAUUUUUAAAAAAGUAUUAUGUUACGCCGUUCGGAUCUGCACUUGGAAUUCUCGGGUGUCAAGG` is reported as 0.0274.
`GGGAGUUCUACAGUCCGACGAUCUCAAGUCCUGUGCUACACAUCGUAUGUACCGAAUCGGGGCCCGGCCCGGCCCGGGAAAGUAUUAUGUUACGCCGUUCGGAUCUGCACUUCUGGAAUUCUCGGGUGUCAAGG` has a log2 enrichment of -0.566.
`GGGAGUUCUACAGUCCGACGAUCCACAGACAACACGCACCCACACAGACACAGAGGGAAGGGUUUGGGAUGGGGACAGGGUGCACAGCAGGGCGGGGUAGGACCCCAGCCCCUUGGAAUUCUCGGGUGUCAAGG` has a log2 enrichment of 1.41.
`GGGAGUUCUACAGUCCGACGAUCUCCGCGUGUGAAGUUUUUCUCGGCUGCAUCAUGGGUGCCACAUUCUUUUUGUUGUUUUCAGUGCUGCAAAAGCCCCAUAUCUGGCCAAGUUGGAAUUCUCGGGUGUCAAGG` has a log2 enrichment of -0.531.
`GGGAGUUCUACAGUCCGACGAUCUCCUGUGCUACACAUCGUAUGUACCGAAUCGGGGAAAGGGGAAAGGGGUUUUUUUGGGGAAAGUAUUAUGUUACGCCGUUCGGAUCUGCAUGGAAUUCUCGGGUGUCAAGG` gave a log2 enrichment of 0.417.
With `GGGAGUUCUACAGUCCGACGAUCGCAGGAAGUAAAAACAAAUGGAAAUGCUUCGGAUAGUGGCAGGGGUGGGGGUUGCUAAGGAAAGGGUGGGAUGGUAGUGGGUAAAGAGUUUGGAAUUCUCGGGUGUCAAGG` the log2 enrichment was 0.154.
With `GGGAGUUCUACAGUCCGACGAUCUGGCCCUGGUGGCAUGCGGGGAGGAAGAGGUGGCCUCAUGUAUCGUGGUGGUCCCGGUGGAAUGUUCAGAGGUGGCCGUGGUGGAGACAGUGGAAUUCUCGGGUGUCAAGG` the log2 enrichment was -0.121.
With `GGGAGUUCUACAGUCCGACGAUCUCCUGUGCUACACAUCGUAUGUACCGAAUCGGGGAAAAAGGGGAAAAAGGGGAAAGGGGAAAGUAUUAUGUUACGCCGUUCGGAUCUGCAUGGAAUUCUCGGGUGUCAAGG` the log2 enrichment was 0.465.
With `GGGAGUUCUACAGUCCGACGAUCUGGCCCUGGUGGCGUGCGGGGAGGAAGAGGUGGCCUCAUGGAUCGUGGUGGUCCCGGUGGAAUGUUCAGAGGUGGCCGUGGUGGAGACAGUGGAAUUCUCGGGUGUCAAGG` the log2 enrichment was 0.575.
With `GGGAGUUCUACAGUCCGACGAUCCACUGACAACACGCACCCACACAGACACAGAGGGAAGGGGUUGGGAUGGGGACAGGGUGCACAGCAGGGCGGGGUAGGACCCCAGCCCCUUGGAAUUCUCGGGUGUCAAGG` the log2 enrichment was 1.33.
With `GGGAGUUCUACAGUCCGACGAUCUAACUUUAGAGGAGGAUCUGAUGGAUAUGGCAGUGGACCUGGAUUUGGGGAUGGCUAUAAUGGGUAUGGAGGAGGACCUGGAGGUGGCAAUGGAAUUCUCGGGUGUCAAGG` the log2 enrichment was 0.125.

Excerpt of the above (series 3):
`GCCAATGA` gave an E-score of -0.148.
`ACAATGCT` gave an E-score of 0.0362.
`CTGTAAAG` gave an E-score of 0.0645.
`AGACCATC` has an E-score of -0.00988.
`AGTAGTCC` gave an E-score of -0.00157.
`TTGCAAAA` gave an E-score of 0.266.
With `CGTAGGCA` the E-score was -0.14.
